Measured values of several laboratories.
“And” joins repeats or separate records; there may be more than shown. ± gives the spread as reported.
Voltage-dependent P/Q-type calcium channel subunit alpha-1A: Voltage-dependent P/Q-type calcium channel subunit alpha-1A (Homo sapiens, UniProt O00555)
Rab GDP dissociation inhibitor beta with Rab1A: Rab GDP dissociation inhibitor beta, with Rab1A (Homo sapiens, UniProt P50395)
ADRA2C: Alpha-2C adrenergic receptor (ADRA2C, Homo sapiens, UniProt P18825)
CHRM5: Muscarinic acetylcholine receptor M5 (CHRM5, Homo sapiens, UniProt P08912)

| SMILES | target | test | system | setting | endpoint | result |
| --- | --- | --- | --- | --- | --- | --- |
| CN1C(N)=N[C@](C)(c2cc(NC(=O)c3ccc(F)cn3)ccc2F)CS1(=O)=O | Voltage-dependent P/Q-type calcium channel subunit alpha-1A | ion current, antagonist | – | 10 µM | inhibition | 31% |
| Cc1cc(-c2ccnc3[nH]cc(F)c23)cc(F)c1[C@@]1(O)[C@H](C)CN(C(=O)CN)C[C@@H]1C | STK38L (Homo sapiens, UniProt Q9Y2H1) | ATP probe binding, KiNativ, item: Lys2 site | HEK293T cell lysate | 10 µM | inhibition | 38% |
| Cc1cc(C)cc(COc2cc3c(cc2OCc2cc(C)cc(C)c2)[C@H]2C[C@](O)(Cc4cn(Cc5cnccn5)nn4)C[C@H](C)N2CC3)c1 | Rab GDP dissociation inhibitor beta with Rab1A | GDI2-Rab1A interaction, NanoLuc complementation | – | 6.25 µM | inhibition | 75.6% |
| CC[C@@H]1[C@H](F)C(=O)N[C@@H]1COc1nccc2cc(C(N)=O)c(OC)cc12 | PTK2 (Homo sapiens, UniProt Q05397) | ATP probe binding, KiNativ profiling, item: Lys1 probe site | THP-1 cell lysate | 0.2 mM | inhibition | -1.1% |
| COc1cc(C(=O)NS(=O)(=O)c2ccccc2C)ccc1Cc1cn(C)c2ccc(NC(=O)OC3CCCC3)cc12 | Volume-regulated anion channel subunit LRRC8C, part LRRC8A IL1 chimera (LRRC8C, Homo sapiens, UniProt Q8TDW0, E6A) | ion current, inhibitor, whole-cell patch clamp | HCT LRRC8-/- cells | 1 µM, +100 mV | inhibition | 39% and 89.5% and 62.4% and 46.5% and 55.2% and 64.2% |
| Cc1cc(-c2ccnc3[nH]cc(F)c23)cc(F)c1[C@@]1(O)[C@H](C)CN(C2CCS(=O)(=O)CC2)C[C@@H]1C | LATS1 (Homo sapiens, UniProt O95835) | ATP probe binding, KiNativ, item: Lys2 site | HEK293T cell lysate | 0.1 µM | inhibition | 12.6% |
| Cc1nn(-c2nc3c(F)cc(F)cc3s2)c(O)c1C(c1ccccc1C(=O)O)c1c(C)nn(-c2nc3c(F)cc(F)cc3s2)c1O | CGAS (Homo sapiens, UniProt Q8N884) | enzyme activity, inhibitor, pyrophosphatase-coupled | – | 50 µM, 1.5 h, added: HT-DNA | inhibition | 82.9% |
| C=C(NC(=O)C(=C)NC(=O)c1csc(C2=N[C@@H]3c4csc(n4)[C@H]4NC(=O)c5csc(n5)[C@H]([C@](C)(O)[C@@H](C)O)NC(=O)[C@H]5CSC(=N5)/C(=C/C)NC(=O)[C@H]([C@@H](C)O)NC(=O)c5csc(n5)[C@]3(CC2)NC(=O)[C@H](C)NC(=O)C(=C)NC(=O)[C@H](C)NC(=O)[C@H]([C@@H](C)CC)N[C@@H]2C=Cc3c([C@H](C)O)cc(nc3[C@H]2O)C(=O)O[C@@H]4C)n1)C(N)=O | TXNRD1 (Homo sapiens, UniProt Q16881) | enzyme activity | – | 50 µM, 1 h, pH 8.0, 37 °C | inhibition | no inhibition |
| CC(C)c1noc2ncc(C(=O)c3ccccc3O)cc12 | A-type voltage-gated potassium channel KCND3 (Rattus norvegicus, UniProt Q62897) | ion current, inhibitor, whole-cell patch clamp | – | 10 µM | inhibition | 9.38% and 20.2% and 13% and 14.3% and 7.58% |
| OO | Histone acetyltransferase RTT109, with Vps75 (Saccharomyces cerevisiae, UniProt Q07794) | enzyme activity, inhibitor | – | 62.5 µM, Rtt109-Vps75 complex, 1 mM DTT, added: [3H]acetyl-CoA | inhibition | 0 ± 10% |
| NCc1ccccc1 | AMD1 (Homo sapiens, UniProt P17707) | probe labelling, inhibitor, gel-based competitive ABPP | transfected HEK-293T cell lysate | up to 300 µM | inhibition | no inhibition |
| Cn1cc(-c2cnc3ccc(NC(=O)Nc4ccc(F)c(Br)c4)cc3n2)cn1 | MAP3K4 (Homo sapiens, UniProt Q9Y6R4) | kinase binding, KiNativ profiling, item: Lys1 peptide | PANC-1 lysate | 5 µM | inhibition | 4.9% |
| Cc1cc(Oc2ncccc2CN2CCN(c3ccccc3)CC2)ccc1-c1c(C)c(=O)[nH]c(=O)n1C | ADRA2C | cAMP production, agonist, GloSensor | cells overexpressing ADRA2C | concentration not given, added: isoproterenol | inhibition | no inhibition |
| NCCNC(=O)c1ccc(Cl)cn1 | Voltage-dependent P/Q-type calcium channel subunit alpha-1A | ion current, antagonist | HEK293 | 10 µM | inhibition | 3% |
| Cc1ccc(S(=O)(=O)c2nc(-c3ccc(F)cc3)oc2SC(C)C)cc1 | UCHL1 (Homo sapiens, UniProt P09936) | covalent, intact protein LC-MS | – | 12.5 µM | labelling | 13.6% |
| Cc1cc2c(cc1N1C(=O)c3cccc4c(CCCO)ccc(c34)C1=O)n(C)c(=O)n2C (racemic) | ATAD2B (Homo sapiens, UniProt Q9ULI0) | binding, BROMOscan binding | – | 1000 nM | inhibition | 59% |
| C#CC[C@]1(O)C[C@@H]2c3cc(OCc4cc(C)cc(C)c4)c(OCc4cc(C)cc(C)c4)cc3CCN2[C@@H](C)C1 | Rab GDP dissociation inhibitor beta with Rab1A | GDI2-Rab1A interaction, NanoLuc complementation | – | 6.25 µM | inhibition | 82.2% |
| O=C(Nc1cccc2c(=O)cc(-c3nnn[nH]3)oc12)c1ccc(OCCCCc2ccccc2)cc1 | LRRC8A/LRRC8C (Homo sapiens, UniProt Q8IWT6+Q8TDW0, Y124F/Y126F) | ion current, whole-cell patch clamp | HCT LRRC8-/- cells | 3 µM, +100 mV, Y124F/Y126F heteromers | inhibition | 8.76% and 63.2% and -3.63% and 10.8% and 4.51% and 18.8% |
| CCN(c1cc(C#CCN2CCOCC2)cc(C(=O)NCc2c(C)cc(C)[nH]c2=O)c1C)[C@H]1CC[C@H](N(C)CCOC)CC1 | EZH2 (Homo sapiens, UniProt Q15910) | enzyme activity, inhibitor | – | 1 µM, added: peptide substrate | inhibition | 100 ± 16% |
| CN(C(=O)n1cnc(-c2ccc[n+]([O-])c2)c1)C1CCCCC1 | ADRA2C | – | – | 10 µM | inhibition | -5% |

| SMILES | target | test | system | setting | endpoint | result |
| --- | --- | --- | --- | --- | --- | --- |
| O=C(NO)c1ccc(CN2CCCCc3ccccc32)c(F)c1 | CHRM5 | radioligand binding, radioligand displacement | – | 10 µM | inhibition | -9.17% |
| Cc1c(-c2ccccc2)oc2c(C(=O)O)cccc2c1=O | Anoctamin-1 (Ano1, Mus musculus, UniProt Q8BHY3) | ion current, inhibitor | HEK293 transfected | 30 µM, at +80 mV | inhibition | ~15% and 15% |
| CC(=O)Nc1ccc(O)cc1 | Voltage-dependent P/Q-type calcium channel subunit alpha-1A | antagonist | HEK293 | 3 µM | inhibition | 19% |
| CCN1/C(=C/C(C)=O)Sc2ccc(F)cc21 | CHRM5 | – | – | 10 µM | inhibition | 0.96% |
| CCCN(CCC)CCc1cccc2c1CC(=O)N2 | Voltage-dependent P/Q-type calcium channel subunit alpha-1A | ion current, antagonist | HEK293 | 3 µM | inhibition | 4% |
| Cc1cc(C)cc(COc2cc3c(cc2OCc2cc(C)cc(C)c2)[C@H]2C[C@](O)(Cc4cn(CC56CC7CC(CC(C7)C5)C6)nn4)C[C@H](C)N2CC3)c1 | Rab GDP dissociation inhibitor beta with Rab1A | GDI2-Rab1A interaction, NanoLuc complementation | – | 6.25 µM | inhibition | 95.4% |
| CN1CCN(c2cc(-c3ccncc3)c(-c3ccc4ccccc4c3)nn2)CC1 | LHCGR (Homo sapiens, UniProt P22888) | antagonist, FLIPR | – | 10 µM | inhibition | 9.7% |
| Cc1ccc(Cn2cc(C[C@@]3(O)C[C@@H]4c5cc(OCc6cc(C)cc(C)c6)c(OCc6cc(C)cc(C)c6)cc5CCN4[C@@H](C)C3)nn2)cc1 | Rab GDP dissociation inhibitor beta with Rab1A | GDI2-Rab1A interaction, NanoLuc complementation | – | 6.25 µM | inhibition | 83.3% |
| [2H]c1cc(C)c(NC(=O)c2cnc(Nc3cc(N4CCCCC4)nc(C)n3)s2)c(Cl)c1 | PDGFRB (Homo sapiens, UniProt P09619) | – | – | 0.01 µM | inhibition | 30 to 90% |
| CCCN1CCCC[C@H]1C(=O)Nc1c(C)cccc1C | Voltage-dependent P/Q-type calcium channel subunit alpha-1A | ion current, antagonist | HEK293 | 3 µM | inhibition | 14% |
| CS(=O)(=O)Nc1cccc(-c2csc(NC(=O)CSc3nc4nccnc4c(=O)n3CCc3ccccc3)n2)c1 | Phosphatidylinositol 4,5-bisphosphate 3-kinase catalytic subunit alpha isoform, with p55 gamma (PIK3CA, Homo sapiens, UniProt P42336) | kinase activity, inhibitor | – | 10 µM, added: PIK3R3 complex | inhibition | 3% |
| Cc1cc(C)cc(COc2cc3c(cc2OCc2cc(C)cc(C)c2)[C@H]2C[C@](O)(Cc4cn(Cc5cccc6ccccc56)nn4)C[C@H](C)N2CC3)c1 | Rab GDP dissociation inhibitor beta with Rab1A | GDI2-Rab1A interaction, inhibitor, NanoLuc complementation | – | 6.25 µM | inhibition | 88.8% |
| CNCC[C@H](Oc1cccc2ccccc12)c1cccs1 | Voltage-dependent P/Q-type calcium channel subunit alpha-1A | ion current, antagonist | HEK293 | 10 µM | inhibition | 28% |
| CCc1oc2ccccc2c1C(=O)c1cc(Br)c(O)c(Br)c1 | SLC22A12 (Homo sapiens, UniProt Q96S37, L153A) | urate uptake | HEK293T | 0.5 µM, 10 min, 37 °C, added: 200 µM [14C]urate | inhibition | 36.1% and 47.7% and 42.8% and 55.7% and 26.9% and 47.3% |
| Cc1nn(-c2nc3c(F)cc(F)cc3s2)c(O)c1C(c1ccc(C(F)(F)F)cc1)c1c(C)nn(-c2nc3c(F)cc(F)cc3s2)c1O | Cyclic GMP-AMP synthase, catalytic domain; with DNA (CGAS, Homo sapiens, UniProt Q8N884) | cGAS phase separation, inhibitor | – | 50 µM | inhibition | 105% |
| CCc1nc2ccc(Cl)cn2c1C(=O)NCc1ccc(N2CCC(c3ccc(OC(F)(F)F)cc3)CC2)cc1 | Cytochrome b, in bc1 complex (COB, Candida albicans, UniProt P0C8L0) | cytochrome c reduction | – | 10 and 1 µM | inhibition | no inhibition |
| COc1cc2c(cc1OC)C(=O)C(CC1CCN(Cc3ccccc3)CC1)C2 (stereo not shown) | Voltage-dependent P/Q-type calcium channel subunit alpha-1A | ion current, antagonist | HEK293 | 10 µM | inhibition | 17% |
| COc1ccc(F)cc1C(=O)NCc1ccc(-c2nn([C@@H](C)C(F)(F)F)c(N)c2C(N)=O)cc1 | TEC (Homo sapiens, UniProt P42680) | target engagement, competitive chemoproteomics | human PBMCs | 0.1 µM | inhibition | 29.9% |
| Cc1cc(C)cc(COc2cc3c(cc2OCc2cc(C)cc(C)c2)[C@H]2C[C@](O)(Cc4cn(CCc5ccc(N)cc5)nn4)C[C@H](C)N2CC3)c1 | Rab GDP dissociation inhibitor beta with Rab1A | GDI2-Rab1A interaction, NanoLuc complementation | – | 6.25 µM | inhibition | 98.3% |
| N[C@@H](Cc1ccc(O)c(O)c1)C(=O)O | Voltage-dependent P/Q-type calcium channel subunit alpha-1A | ion current, antagonist | HEK293 | 30 µM | inhibition | 8% |

Excerpt of the above:
| SMILES | target | test | system | setting | endpoint | result |
| --- | --- | --- | --- | --- | --- | --- |
| O=C(Nc1cccc2c(=O)cc(-c3nnn[nH]3)oc12)c1ccc(OCCCCc2ccccc2)cc1 | LRRC8A/LRRC8C (Homo sapiens, UniProt Q8IWT6+Q8TDW0, Y124F/Y126F) | ion current, whole-cell patch clamp | HCT LRRC8-/- cells | 3 µM, +100 mV, Y124F/Y126F heteromers | inhibition | 8.76% and 63.2% and -3.63% and 10.8% and 4.51% and 18.8% |
| CCN(c1cc(C#CCN2CCOCC2)cc(C(=O)NCc2c(C)cc(C)[nH]c2=O)c1C)[C@H]1CC[C@H](N(C)CCOC)CC1 | EZH2 (Homo sapiens, UniProt Q15910) | enzyme activity, inhibitor | – | 1 µM, added: peptide substrate | inhibition | 100 ± 16% |
| CN(C(=O)n1cnc(-c2ccc[n+]([O-])c2)c1)C1CCCCC1 | ADRA2C | – | – | 10 µM | inhibition | -5% |
